Measured values of several laboratories.
Compare with care: the assays were run in different laboratories.
USP51: Ubiquitin carboxyl-terminal hydrolase 51 (USP51, Homo sapiens, UniProt Q70EK9)
Chain of UniProt Q70EK9 (whole entry, looked up): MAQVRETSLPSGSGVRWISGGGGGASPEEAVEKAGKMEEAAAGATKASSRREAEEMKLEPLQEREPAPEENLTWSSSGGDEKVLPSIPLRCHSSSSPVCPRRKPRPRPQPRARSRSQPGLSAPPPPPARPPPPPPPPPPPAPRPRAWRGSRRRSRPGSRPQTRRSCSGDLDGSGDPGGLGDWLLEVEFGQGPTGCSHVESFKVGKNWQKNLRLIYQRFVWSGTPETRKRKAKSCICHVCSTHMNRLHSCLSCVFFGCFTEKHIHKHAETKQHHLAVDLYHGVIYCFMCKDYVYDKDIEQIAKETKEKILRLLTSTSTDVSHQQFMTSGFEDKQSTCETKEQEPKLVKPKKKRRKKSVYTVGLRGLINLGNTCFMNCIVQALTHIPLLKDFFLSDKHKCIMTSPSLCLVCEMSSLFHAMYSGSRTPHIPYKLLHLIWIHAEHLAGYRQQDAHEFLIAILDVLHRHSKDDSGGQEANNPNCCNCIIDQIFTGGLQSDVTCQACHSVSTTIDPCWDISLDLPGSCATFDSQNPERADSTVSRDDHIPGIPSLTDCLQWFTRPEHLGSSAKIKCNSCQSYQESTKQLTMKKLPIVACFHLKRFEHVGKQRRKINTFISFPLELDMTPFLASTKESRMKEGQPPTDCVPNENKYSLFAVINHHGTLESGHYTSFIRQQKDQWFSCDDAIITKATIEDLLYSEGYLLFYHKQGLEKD
PTGS2: Prostaglandin G/H synthase 2 (PTGS2, Homo sapiens, UniProt P35354)
Chain of UniProt P35354 (whole entry, looked up): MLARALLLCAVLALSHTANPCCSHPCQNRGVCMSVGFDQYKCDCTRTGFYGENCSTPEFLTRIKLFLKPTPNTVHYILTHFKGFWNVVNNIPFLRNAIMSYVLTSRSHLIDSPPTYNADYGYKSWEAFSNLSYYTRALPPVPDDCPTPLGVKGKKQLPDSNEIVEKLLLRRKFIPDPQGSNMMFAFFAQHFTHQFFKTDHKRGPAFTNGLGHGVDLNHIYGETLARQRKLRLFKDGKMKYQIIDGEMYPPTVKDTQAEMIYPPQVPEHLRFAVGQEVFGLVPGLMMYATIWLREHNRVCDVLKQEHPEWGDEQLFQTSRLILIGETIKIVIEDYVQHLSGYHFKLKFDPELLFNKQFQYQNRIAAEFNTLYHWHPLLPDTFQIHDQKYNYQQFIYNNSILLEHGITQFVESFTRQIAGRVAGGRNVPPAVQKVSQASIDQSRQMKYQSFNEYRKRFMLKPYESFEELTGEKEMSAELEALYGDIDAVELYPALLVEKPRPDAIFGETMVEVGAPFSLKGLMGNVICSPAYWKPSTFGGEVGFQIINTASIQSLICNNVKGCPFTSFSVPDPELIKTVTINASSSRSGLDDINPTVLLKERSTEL
HDAC1: Histone deacetylase 1 (HDAC1, Homo sapiens, UniProt Q13547)
Chain of UniProt Q13547 (whole entry, looked up): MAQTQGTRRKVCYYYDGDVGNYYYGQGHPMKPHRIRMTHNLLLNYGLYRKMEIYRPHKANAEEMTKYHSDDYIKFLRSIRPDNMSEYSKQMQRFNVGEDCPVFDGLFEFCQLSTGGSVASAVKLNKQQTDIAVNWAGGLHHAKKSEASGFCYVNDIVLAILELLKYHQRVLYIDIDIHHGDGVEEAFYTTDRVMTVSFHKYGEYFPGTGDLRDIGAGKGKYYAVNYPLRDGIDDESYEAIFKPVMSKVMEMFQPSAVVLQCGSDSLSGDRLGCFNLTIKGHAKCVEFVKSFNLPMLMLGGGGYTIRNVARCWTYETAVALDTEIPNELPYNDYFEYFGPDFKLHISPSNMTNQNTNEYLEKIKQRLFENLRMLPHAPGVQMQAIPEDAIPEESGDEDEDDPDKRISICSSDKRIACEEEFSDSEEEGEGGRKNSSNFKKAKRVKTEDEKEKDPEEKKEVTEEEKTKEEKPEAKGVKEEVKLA
PDE10A: cAMP and cAMP-inhibited cGMP 3',5'-cyclic phosphodiesterase 10A (PDE10A, Homo sapiens, UniProt Q9Y233)
Chain of UniProt Q9Y233 (whole entry, looked up): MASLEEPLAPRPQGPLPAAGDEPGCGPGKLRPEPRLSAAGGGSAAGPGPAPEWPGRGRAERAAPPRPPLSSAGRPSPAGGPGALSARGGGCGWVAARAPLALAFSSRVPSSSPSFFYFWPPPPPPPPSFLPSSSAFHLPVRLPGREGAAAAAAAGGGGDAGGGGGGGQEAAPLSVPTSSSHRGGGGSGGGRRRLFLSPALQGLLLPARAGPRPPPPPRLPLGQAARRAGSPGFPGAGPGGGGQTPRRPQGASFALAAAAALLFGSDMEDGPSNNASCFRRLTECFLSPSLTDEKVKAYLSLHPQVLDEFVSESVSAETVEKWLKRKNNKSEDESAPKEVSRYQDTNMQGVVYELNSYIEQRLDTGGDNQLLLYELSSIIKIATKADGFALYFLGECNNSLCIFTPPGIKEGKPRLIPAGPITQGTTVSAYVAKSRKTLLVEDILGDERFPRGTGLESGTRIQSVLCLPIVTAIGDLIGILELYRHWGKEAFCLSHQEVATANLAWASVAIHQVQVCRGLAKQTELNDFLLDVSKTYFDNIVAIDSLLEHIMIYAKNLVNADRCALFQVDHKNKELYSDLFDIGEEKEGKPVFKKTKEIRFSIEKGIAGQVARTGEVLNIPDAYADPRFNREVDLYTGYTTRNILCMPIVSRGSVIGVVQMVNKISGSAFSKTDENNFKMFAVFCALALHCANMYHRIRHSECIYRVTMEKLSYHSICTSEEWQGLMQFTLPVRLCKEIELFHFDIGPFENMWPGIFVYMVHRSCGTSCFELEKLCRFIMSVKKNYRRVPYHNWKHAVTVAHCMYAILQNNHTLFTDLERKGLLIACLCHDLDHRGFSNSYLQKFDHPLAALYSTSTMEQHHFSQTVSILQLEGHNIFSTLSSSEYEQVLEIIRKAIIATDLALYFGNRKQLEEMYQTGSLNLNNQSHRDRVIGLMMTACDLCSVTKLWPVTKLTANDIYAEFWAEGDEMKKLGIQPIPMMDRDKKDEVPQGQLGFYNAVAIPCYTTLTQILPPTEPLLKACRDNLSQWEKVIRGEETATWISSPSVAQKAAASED
MAP2K4: Dual specificity mitogen-activated protein kinase kinase 4 (MAP2K4, Homo sapiens, UniProt P45985)
Chain of UniProt P45985 (whole entry, looked up): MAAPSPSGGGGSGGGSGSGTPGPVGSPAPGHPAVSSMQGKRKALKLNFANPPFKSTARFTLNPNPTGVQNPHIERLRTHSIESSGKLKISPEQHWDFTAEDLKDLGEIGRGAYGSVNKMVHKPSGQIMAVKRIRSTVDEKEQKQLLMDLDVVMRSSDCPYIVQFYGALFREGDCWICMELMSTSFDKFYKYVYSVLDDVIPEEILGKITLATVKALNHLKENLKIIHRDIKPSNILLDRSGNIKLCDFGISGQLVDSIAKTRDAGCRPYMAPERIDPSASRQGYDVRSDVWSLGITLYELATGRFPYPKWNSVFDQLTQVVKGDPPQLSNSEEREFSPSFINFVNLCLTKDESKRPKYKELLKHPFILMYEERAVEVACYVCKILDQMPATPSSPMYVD
SCN1A: Sodium channel protein type 1 subunit alpha (SCN1A, Homo sapiens, UniProt P35498)
SIRT6: NAD-dependent protein deacylase sirtuin-6 (SIRT6, Homo sapiens, UniProt Q8N6T7)
Chain of UniProt Q8N6T7 (whole entry, looked up): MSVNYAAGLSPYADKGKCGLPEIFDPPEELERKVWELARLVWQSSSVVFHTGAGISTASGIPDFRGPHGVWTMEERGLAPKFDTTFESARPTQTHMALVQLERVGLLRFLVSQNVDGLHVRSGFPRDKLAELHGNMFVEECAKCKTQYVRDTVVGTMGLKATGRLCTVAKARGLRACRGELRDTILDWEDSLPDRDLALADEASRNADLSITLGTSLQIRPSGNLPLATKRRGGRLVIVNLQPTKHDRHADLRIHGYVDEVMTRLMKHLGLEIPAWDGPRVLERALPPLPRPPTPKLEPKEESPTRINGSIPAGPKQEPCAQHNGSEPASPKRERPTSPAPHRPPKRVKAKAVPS
HDAC6: Protein deacetylase HDAC6 (HDAC6, Homo sapiens, UniProt Q9UBN7)
DRD3: D(3) dopamine receptor (DRD3, Homo sapiens, UniProt P35462)
Chain of UniProt P35462 (whole entry, looked up): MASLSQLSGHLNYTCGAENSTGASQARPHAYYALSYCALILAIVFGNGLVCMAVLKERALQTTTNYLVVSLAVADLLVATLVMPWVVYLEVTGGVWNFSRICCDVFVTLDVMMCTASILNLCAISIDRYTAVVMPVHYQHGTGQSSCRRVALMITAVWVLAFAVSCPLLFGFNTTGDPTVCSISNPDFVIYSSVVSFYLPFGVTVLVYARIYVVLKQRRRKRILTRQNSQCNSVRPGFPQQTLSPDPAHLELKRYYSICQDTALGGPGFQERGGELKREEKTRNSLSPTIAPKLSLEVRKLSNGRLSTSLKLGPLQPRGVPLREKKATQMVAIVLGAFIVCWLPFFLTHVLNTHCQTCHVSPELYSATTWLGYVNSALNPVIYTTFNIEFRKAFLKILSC
Chain of UniProt P31645 (whole entry, looked up): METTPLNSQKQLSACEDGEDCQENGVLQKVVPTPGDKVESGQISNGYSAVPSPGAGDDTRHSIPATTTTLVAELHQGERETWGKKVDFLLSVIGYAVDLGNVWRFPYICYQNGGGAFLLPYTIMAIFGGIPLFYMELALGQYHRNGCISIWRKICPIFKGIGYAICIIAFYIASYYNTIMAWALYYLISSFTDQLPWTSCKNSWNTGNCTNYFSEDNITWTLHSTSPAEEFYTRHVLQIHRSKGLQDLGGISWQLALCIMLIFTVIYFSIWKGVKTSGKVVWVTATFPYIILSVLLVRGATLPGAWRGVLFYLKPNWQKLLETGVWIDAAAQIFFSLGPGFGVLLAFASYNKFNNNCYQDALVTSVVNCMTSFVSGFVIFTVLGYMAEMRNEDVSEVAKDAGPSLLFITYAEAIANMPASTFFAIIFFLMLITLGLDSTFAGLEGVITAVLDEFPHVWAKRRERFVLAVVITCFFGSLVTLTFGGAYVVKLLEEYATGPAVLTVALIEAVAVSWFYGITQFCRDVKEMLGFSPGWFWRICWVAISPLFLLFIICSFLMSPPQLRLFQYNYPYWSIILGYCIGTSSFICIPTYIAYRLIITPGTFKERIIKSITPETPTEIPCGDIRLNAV
Chain of UniProt Q00535 (whole entry, looked up): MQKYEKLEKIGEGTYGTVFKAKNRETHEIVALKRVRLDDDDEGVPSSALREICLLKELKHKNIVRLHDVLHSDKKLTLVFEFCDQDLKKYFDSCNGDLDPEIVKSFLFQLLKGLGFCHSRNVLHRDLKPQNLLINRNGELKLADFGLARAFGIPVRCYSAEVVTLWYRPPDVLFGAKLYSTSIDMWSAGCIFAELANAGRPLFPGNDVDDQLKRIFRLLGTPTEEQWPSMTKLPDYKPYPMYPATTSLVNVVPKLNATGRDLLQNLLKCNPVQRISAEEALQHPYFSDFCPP

Compound | tested on | test | test system | setting | endpoint | value
NC/C(=C\F)COc1cccc(Cn2c(=S)[nH]c(=O)c3[nH]cnc32)c1 | PTAFR (Homo sapiens, UniProt P25105) | ligand displacement, radioligand | – | 10 µM | inhibition | < 50%
COc1cc([C@@H]2c3cc4c(cc3[C@@H](O[C@@H]3O[C@@H]5CO[C@@H](C)O[C@H]5[C@H](O)[C@H]3O)[C@H]3COC(=O)[C@H]23)OCO4)cc(OC)c1O | USP51 | enzyme activity, inhibitor | – | 5 µM | inhibition | 0%
O=c1cc(-c2ccc(O)cc2)oc2cc(O)cc(O)c12 | PTGS2 | enzyme activity, inhibitor | – | 1.95 µg/mL | inhibition | 36.2%
CC[C@H](C)[C@H](NC(=O)[C@H](CCC(N)=O)NC(=O)[C@H](CC(C)C)NC(=O)[C@H](CCSC)NC(=O)[C@H](CCCCN)NC(=O)[C@H](CO)NC(=O)[C@H](CO)NC(=O)[C@H](CCSC)NC(=O)[C@H](CC(C)C)NC(=O)[C@H](CC(N)=O)NC(=O)[C@@H](NC(=O)[C@@H](NC(=O)[C@H](CO)NC(=O)[C@H](CC(C)C)NC(=O)[C@H](CS)NC(=O)[C@H](CCCNC(=N)N)NC(=O)[C@H](CC(=O)O)NC(=O)[C@H](Cc1c[nH]c2ccccc12)NC(=O)[C@H](Cc1ccccc1)NC(=O)[C@H](C)NC(=O)[C@H](CCC(=O)O)NC(=O)[C@@H](N)CCCCN)C(C)C)[C@@H](C)CC)C(=O)N[C@@H](CC(N)=O)C(=O)N[C@@H](C)C(=O)O | GSK3B (Homo sapiens, UniProt P49841) | enzyme activity, inhibitor, radiometric | – | 1 µM | inhibition | 3%
C=C[C@@]1(C)C=C2CC[C@@H]3[C@](C)(CCC[C@@]3(C)C(=O)O)[C@H]2CC1 | PTGS2 | enzyme activity, inhibitor | – | 1.95 µg/mL | inhibition | 26.1%
CC(C)c1ccc(OS(=O)(=O)Oc2cccc(C(=O)NO)c2)cc1 | HDAC1 | enzyme activity, inhibitor, fluorescence | – | 10 µM | inhibition | 46%
COC(=O)c1ccc(O)cc1 | PTGS2 | enzyme activity, inhibitor | – | 7.81 µg/mL | inhibition | 18.6%
COc1ccc(Cc2ncnc3cc(OC)c(OC)cc23)cc1 | PDE10A | enzyme activity, inhibitor, FP | – | 0.1 µM | inhibition | 33%
CC(C)(C)c1cccc(OS(=O)(=O)Oc2cncc(C(=O)NO)c2)c1 | HDAC1 | enzyme activity, inhibitor, fluorescence | – | 5 µM | inhibition | 50%
OC[C@@]12C[C@@H]1[C@@H](n1cnc3c(N[C@@H](C4CCC4)C4CC4)nc(C#Cc4ccc(Cl)s4)nc31)[C@H](O)[C@@H]2O | SLC6A4 (Homo sapiens, UniProt P31645) | ligand displacement, radioligand | – | 10 µM | inhibition | 23%
O=c1oc2ccccc2c(O)c1Cc1c(O)c2ccccc2oc1=O | USP51 | enzyme activity, inhibitor | – | 5 µM | inhibition | 0%
O=C(c1ccc([N+](=O)[O-])cc1)N1CCC(n2cncc2-c2ccc(OS(=O)(=O)c3cccc4cnccc34)cc2)CC1 | P2X purinoceptor 7 (P2RX7, Homo sapiens, UniProt Q99572) | ligand displacement, radioligand | – | 1 µM, cell membranes | inhibition | > 70%
COc1cc(-c2cc(=O)c3c(O)cc(O)cc3o2)ccc1O | PTGS2 | enzyme activity, inhibitor | – | 0.12 µg/mL | inhibition | 0%
COc1cc(-c2cncc3c2CN(C)Cc2cc(N4CCNCC4)ccc2-3)cc(OC)c1OC | MET (Homo sapiens, UniProt P08581, D1228H) | enzyme activity, inhibitor | – | 1 µM | remaining activity | 94%
CNc1cc(Oc2cc(C(=O)Nc3cc(N4CCN(C)CC4)cc(C(F)(F)F)c3)ccc2C)ncn1 | MAP2K4 | target engagement in cells, inhibitor, chemoproteomics | Huh-7 | 1 µM | inhibition | -31.3%
O=C(NO)c1cc(F)cc(OS(=O)(=O)Oc2ccc(C(F)(F)F)cc2)c1 | HDAC1 | enzyme activity, inhibitor, fluorescence | – | 5 µM | inhibition | 12%
CC(C)OCCn1c(=S)[nH]c(=O)c2[nH]ccc21 | Myeloperoxidase (MPO, Homo sapiens, UniProt P05164) | enzyme activity, inhibitor, fluorescence | – | 10 µM | inhibition | 99.8%
CC[C@H](C)[C@H](NC(=O)[C@H](CCC(N)=O)NC(=O)[C@@H](NC(=O)[C@H](CCSC)NC(=O)[C@H](CCCCN)NC(=O)[C@H](CO)NC(=O)[C@@H](NC(=O)[C@H](CCSC)NC(=O)[C@H](CC(C)C)NC(=O)[C@H](CC(N)=O)NC(=O)[C@@H](NC(=O)[C@@H](NC(=O)[C@H](CO)NC(=O)[C@H](CC(C)C)NC(=O)[C@H](C)NC(=O)[C@H](CCCNC(=N)N)NC(=O)[C@H](CCC(=O)O)NC(=O)[C@H](Cc1ccc(O)cc1)NC(=O)[C@H](Cc1ccccc1)NC(=O)[C@H](C)NC(=O)[C@H](CC(N)=O)NC(=O)[C@@H](N)CCCCN)[C@@H](C)CC)[C@@H](C)CC)[C@@H](C)O)C(C)C)C(=O)N[C@@H](CC(N)=O)C(=O)N[C@H](C(=O)O)C(C)C | Cyclin-dependent kinase 5, with p35 (CDK5, Homo sapiens, UniProt Q00535) | enzyme activity, inhibitor, radiometric | – | 100 µM | inhibition | 57%
Cc1cc(C(C)(C)C)ccc1OS(=O)(=O)Oc1cccc(C(=O)NO)c1 | HDAC1 | enzyme activity, inhibitor, fluorescence | – | 10 µM | inhibition | 24%
Cc1cc([C@@H](C)Nc2ccccc2C(=O)O)c2nc(N3CCC(F)(F)CC3)c(C#N)c(=O)n2c1 | PLK4 (Homo sapiens, UniProt O00444) | binding, competition with immobilised ligand | – | 1 µM | remaining binding | 76%
O=c1cc(-c2ccc(O)c(O)c2)oc2cc(O)cc(O)c12 | PTGS2 | enzyme activity, inhibitor | – | 3.9 µg/mL | inhibition | 100%
Nc1c(Br)cc(Br)cc1CN[C@H]1CC[C@H](O)CC1 | SCN1A | ion current, inhibitor, patch clamp | – | 30 µM | inhibition | 54.3%
O=C(O)c1ccc(C(=O)NOCc2ccccc2)cc1 | SIRT6 | enzyme activity, inhibitor, fluorescence | – | 100 µM | inhibition | 2.1%
Cc1cc(OS(=O)(=O)Oc2ccc3ccccc3c2)cc(C(=O)NO)c1 | HDAC6 | enzyme activity, inhibitor, fluorescence | – | 10 µM | inhibition | 41%

Compound | tested on | test | test system | setting | endpoint | value
Cc1[nH]c(C)c(S(=O)(=O)Nc2ccc(I)c(Cl)c2)c1C(=O)N1CCC(F)(F)C1 | DRD3 | G protein activation, antagonist, BRET | – | – | IC50 | 920 nM
CCCN1C[C@H](CSC)C[C@@H]2c3cccc4[nH]cc(c34)C[C@H]21 | SCN1A | ion current, inhibitor, patch clamp | – | 10 µM | inhibition | 61.4%
C[C@H]1O[C@H](O[C@H]2[C@H](O)[C@@H](O)[C@@H](O[C@H]3[C@H](O)[C@@H](O)C(O)O[C@@H]3CO)O[C@@H]2CO)[C@H](O)[C@@H](O)[C@@H]1N[C@H]1C=C(CO)[C@@H](O)[C@H](O)[C@H]1O (stereo partly drawn) | MAL12 (Saccharomyces cerevisiae S288c, UniProt P53341) | enzyme activity, inhibitor, absorbance | – | 800 µg/mL | inhibition | 70.3%
O=C1O[C@H]([C@@H](O)CO)C(O)=C1O | – | ABTS scavenging | – | 10 µg/mL | inhibition | 11.9%
C#Cc1cc(-c2cc(Nc3nc(N[C@@H](C)c4ccc(F)cn4)ncc3Cl)n[nH]2)ccc1C=O | PKN3 (Homo sapiens, UniProt Q6P5Z2) | enzyme activity, inhibitor | – | 0.2 µM | inhibition | 19%
Cc1[nH]c(C)c(S(=O)(=O)Nc2cc(Cl)c(C(F)(F)F)c(Cl)c2)c1C(=O)N1CCC(F)(F)C1 | DRD3 | G protein activation, antagonist, BRET | – | – | IC50 | 270 nM
Cc1cc(OS(=O)(=O)Oc2ccc(Oc3ccccc3)cc2)cc(C(=O)NO)c1 | HDAC6 | enzyme activity, inhibitor, fluorescence | – | 10 µM | inhibition | 54%
COc1cc2ncnc(Cc3cccc(-c4ccccn4)c3)c2cc1OC | PDE10A | enzyme activity, inhibitor, FP | – | 0.1 µM | inhibition | 50%
CCCCCCCCCCCCCCCCCC(=O)O | USP51 | enzyme activity, inhibitor | – | 5 µM | inhibition | 13%
CNc1ncc2c(/C=C/C(=O)N3CCC(OC)CC3)nn(Cc3cccc(C(F)(F)F)c3)c2n1 | MAP2K4 | enzyme activity, inhibitor, radiometric | – | 1 µM | remaining activity | 101%
CN1CC(Oc2cnc(C#N)cc2-c2ccn3nc(NC(=O)C4CC4)cc3c2)C1 | PIM3 (Homo sapiens, UniProt Q86V86) | enzyme activity, inhibitor | – | 1 µM | inhibition | -5%
Nc1nc2[nH]c(C3CCCC3)c(Cc3cccc(Cl)c3)c(=O)n2n1 | CCR5 (Homo sapiens, UniProt P51681) | β-arrestin recruitment, antagonist | – | 1 µM | inhibition | 81%
O=C1c2c(O)cc(O)cc2O[C@H](c2cc(O)c(O)c(O)c2)[C@H]1O | USP51 | enzyme activity, inhibitor | – | 5 µM | inhibition | 100%
O=C(NO)c1cccc(OS(=O)(=O)Oc2ccc([N+](=O)[O-])cc2)c1 | HDAC1 | enzyme activity, inhibitor, fluorescence | – | 5 µM | inhibition | 30%
Cc1ccc(CONC(=O)c2ccc(C(N)=O)cc2)cc1 | SIRT6 | enzyme activity, inhibitor, fluorescence | – | 100 µM | inhibition | 78.3%
CC12CC3CC(C)(C1)CC(N)(C3)C2 | SCN1A | ion current, inhibitor, patch clamp | – | 10 µM | inhibition | 12.4%
C=C(C)[C@@H]1CC=C(CO)CC1 | USP51 | enzyme activity, inhibitor | – | 5 µM | inhibition | 15%
Fc1ccc(NC(=S)NN=Cc2ccc(N3CCCCC3)cc2)cc1 | DHFR (Homo sapiens, UniProt P00374) | enzyme activity, inhibitor | – | 500 µM | inhibition | 89.2%
O=c1c(O)c(-c2ccc(O)c(O)c2)oc2cc(O)cc(O)c12 | USP51 | enzyme activity, inhibitor | – | 5 µM | inhibition | 97%
COc1cc([C@H]2OC[C@H]3[C@@H]2CO[C@@H]3c2cc(OC)c(O)c(OC)c2)cc(OC)c1O | PTGS2 | enzyme activity, inhibitor | – | 0.12 µg/mL | inhibition | 6.24%
O[C@H]1[C@H](O)[C@@H](O)[C@H](O)[C@@H](O)[C@H]1O | USP51 | enzyme activity, inhibitor | – | 5 µM | inhibition | 0%
COc1ccc(Cc2ncnc3cc(OC)c(OC)cc23)cc1OC | PDE10A | enzyme activity, inhibitor, FP | – | 0.1 µM | inhibition | 48%
Cn1c(=O)c2[nH]cnc2n(C)c1=O | USP51 | enzyme activity, inhibitor | – | 5 µM | inhibition | 0%
C=CC(=O)N1CCC(COCC(=O)N2CCN(c3nc(-c4cnc(N)nc4C(F)F)nc(N4CCOC[C@@H]4C)n3)CC2)CC1 | NTRK1 (Homo sapiens, UniProt P04629) | binding, competition with immobilised ligand | – | 1 µM | remaining binding | 59%

A few entries again:
Compound | tested on | test | test system | setting | endpoint | value
O=C(O)c1ccc(C(=O)NOCc2ccccc2)cc1 | SIRT6 | enzyme activity, inhibitor, fluorescence | – | 100 µM | inhibition | 2.1%
Cc1cc([C@@H](C)Nc2ccccc2C(=O)O)c2nc(N3CCC(F)(F)CC3)c(C#N)c(=O)n2c1 | PLK4 (Homo sapiens, UniProt O00444) | binding, competition with immobilised ligand | – | 1 µM | remaining binding | 76%
COc1cc([C@@H]2c3cc4c(cc3[C@@H](O[C@@H]3O[C@@H]5CO[C@@H](C)O[C@H]5[C@H](O)[C@H]3O)[C@H]3COC(=O)[C@H]23)OCO4)cc(OC)c1O | USP51 | enzyme activity, inhibitor | – | 5 µM | inhibition | 0%
